Measurements pooled from the literature.
A part holds a random share of what one study measured. Changes are numbered by the printed parent chain.

Block 1 — target: CCNE1, cyclin fold, Cln2 fusion (human); method: yeast growth competition, sequencing; matrix: yeast; setting: strong parent motif; baseline: not given; reading: higher = stronger binding
Starting sequence: BRCA2 docking peptide (human); PSIKRNLLNEFDR
| Change | normalised enrichment score |
| --- | --- |
| PSIKRNLLNRFDR [E10R] | 0.392 |
| PSIKRNLRNEFDR [L8R] | -1.17 |
| PSIKRNLLNEFCR [D12C] | 1.31 |
| PSIKRNLLNEFRR [D12R] | 0.573 |
| PEIKRNLLNEFDR [S2E] | 0.417 |
| ISIKRNLLNEFDR [P1I] | 1.42 |
| PSIPRNLLNEFDR [K4P] | 0.648 |
| PSIKRYLLNEFDR [N6Y] | 0.414 |
| PSIKRNLLNYFDR [E10Y] | 1.87 |
| PSDKRNLLNEFDR [I3D] | -0.318 |
| PVIKRNLLNEFDR [S2V] | 1.08 |
| PSIKRNLLNEFWR [D12W] | 2.31 |
| PSIKRNRLNEFDR [L7R] | 0.729 |
| PSIKRNLLNEFDW [R13W] | 3.1 |
| PSIKRNLLTEFDR [N9T] | 1.43 |
| PSIKRNLLNWFDR [E10W] | 1 |
| PSIERNLLNEFDR [K4E] | -0.13 |
| PQIKRNLLNEFDR [S2Q] | 1.67 |
| PSIKRNTLNEFDR [L7T] | 0.592 |
| PSIKFNLLNEFDR [R5F] | -0.732 |
| PSIKRNLLNQFDR [E10Q] | 0.816 |
| PSTKRNLLNEFDR [I3T] | 0.929 |
| PSIKRNLLFEFDR [N9F] | 1.4 |
| PSIKRNLLNCFDR [E10C] | 0.763 |
| PSIKRNLLNSFDR [E10S] | 0.607 |

Block 2 — method: protein-binding microarray; molecule type: double-stranded DNA, one strand shown; matrix: in vitro; concentration: 2200 nM top; setting: 60-bp whole probe; added: salmon DNA 0.4 mg/ml; baseline: random background probes; reading: higher = stronger binding; all sequences stand within: GCCTAGCAC … GTCTTGATTCGCTTGACGCTGCTG
Target: Interferon regulatory factor 7, full length, phosphomimetic (IRF7, Homo sapiens, UniProt Q92985, residues 1-503, S471D/S472D/S475D/S476D/S477D/S483D/S484D/S487D)
Sequence of UniProt Q92985 (whole entry, unmodified, looked up): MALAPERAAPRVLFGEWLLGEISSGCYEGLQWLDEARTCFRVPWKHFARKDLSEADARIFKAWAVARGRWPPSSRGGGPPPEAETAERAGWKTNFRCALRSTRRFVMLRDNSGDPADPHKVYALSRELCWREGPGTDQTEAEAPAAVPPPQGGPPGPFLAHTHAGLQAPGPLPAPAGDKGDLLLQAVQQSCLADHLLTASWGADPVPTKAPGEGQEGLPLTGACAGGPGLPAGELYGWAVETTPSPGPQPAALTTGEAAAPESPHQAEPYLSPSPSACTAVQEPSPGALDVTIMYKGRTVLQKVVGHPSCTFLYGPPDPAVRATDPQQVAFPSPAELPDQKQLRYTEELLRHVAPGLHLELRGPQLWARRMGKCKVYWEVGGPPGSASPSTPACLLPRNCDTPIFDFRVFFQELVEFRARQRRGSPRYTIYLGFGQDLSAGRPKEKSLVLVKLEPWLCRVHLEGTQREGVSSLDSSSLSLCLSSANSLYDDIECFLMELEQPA
| Strand | fitted relative affinity [z-score] |
| --- | --- |
| TTAGGACTGGGTCTCCGTTAGTGCTAG | -0.59 |
| GACGGTCTCGGACTGGAGACGTGCTAG | -0.45 |
| GACGGTCTCGGTAGCGGGACGTGCTAG | -0.583 |
| GCCGGACTGGACTTTCGGGACGTGCTA | 2 |
| GGCGGTCTCGGTCTCGGGACGTGCTAG | -0.623 |
| TCAGGTCACTCTCTGGGACTGTGCTAG | -0.0408 |
| TTAGATCTCAGTCTCGATTTGTGCTAG | 1.39 |
| AGCATCTTCAAGACTCATAATGTGCTA | -0.349 |
| CCTCATCTTCCTCTGCCACAGTGCTAG | 2.06 |
| AACGATCTCAGACTGGAGACGTGCTAG | 0.0729 |
| TTAGGTATGGGGTATCGGTTAGTGCTA | 0.0674 |
| GTGCCTTTTTTTTTTTTTCTGTGCTAG | 1.53 |
| TTCACTTTCTTTAACATATTGTGCTAG | 2.1 |
| TTAGATCTAAGTTTCGATTAGTGCTAG | 4.9 |
| TCATTTTTGCATTGCTTACTGTGCTAG | 3.5 |
| TTAGGACTGGTTATCGGTTAGTGCTAG | 0.494 |
| GACGGTTTCGGGACTGTGGACGTGCTA | 3.9 |
| GACGATCTCAAACTGGAGACGTGCTAG | -0.123 |

Block 3 — method: RNA Bind-n-Seq; molecule type: RNA; matrix: in vitro; concentration: 365 nM; baseline: no-protein control; reading: higher = stronger binding
Target: RNA binding protein fox-1 homolog 2, RRM domain, GST-SBP tag (RBFOX2, Homo sapiens, UniProt O43251-10, residues 100-194)
Setting: natural RNA segment, single round, ends assumed
Target sequence (chain): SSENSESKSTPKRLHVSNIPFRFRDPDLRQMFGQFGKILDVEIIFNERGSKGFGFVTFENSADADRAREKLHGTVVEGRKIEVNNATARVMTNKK
| Strand | RBNS enrichment (R) |
| --- | --- |
| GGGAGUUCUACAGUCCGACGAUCUGACAUUCAUUGAGCCAAAAGAGAUGUGGAGAAACAUUUUUCACCUUUCUGUUUGGCCUGAUUAACAUUUAAAUUCUUGCCAAAAUUAAGGUAACUUUUAAAAAACACCUUGGAAUUCUCGGGUGCCAA | 0.576 |
| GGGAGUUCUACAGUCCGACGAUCGCCUGAAAGGCUCCACAGCAUGGCGUCCGUCUCCCAGGGUUCUGAUCCGUCUCCUCACGGUGCAAUCAGGCAGGACAGGAGGAGGUGCAGGGCUACCACAUUGACCCAGAUGGAAUUCUCGGGUGCCAA | 0.821 |
| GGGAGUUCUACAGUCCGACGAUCGUGUCCUUCUUCCUCAAGUCUUGACAAUUCCCGGGCCCUUCAGUCCCUGAGCAGUCUACUUCUGUGUCUGUCACCACAUCUUGUCUUUUCCCCUCAUUGCAUUUAUUGCAUGGAAUUCUCGGGUGCCAA | 0.421 |
| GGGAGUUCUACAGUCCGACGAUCGAAGGGAGUCGGGAGGGAAGGAAGGGGUAGGCUCGCCCUGCUUUAUCCAUGCUAGAACCAUGGUAUCCCAUGGGAAGCAGACAGCAGGCAAGGAGAGGCGUGGACACCGGUGGAAUUCUCGGGUGCCAA | 0.457 |
| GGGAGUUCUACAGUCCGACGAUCUUUUGUCUGUACUGACUCUAUCUGCCACACAGAAUGUAUGUAUGUAAUAUUCAGUAAUAAAUGUCAUCAGGUGAUGACUGGAUGAGCUGCUGAAGACAUUCGUAUUAUGUUGGAAUUCUCGGGUGCCAA | 0.411 |
| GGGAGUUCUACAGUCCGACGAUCGAAGAAAAUUAAUGUUUUAAUGUAAAUGUUUUUAAAACCAAGAUCACCAUAGAGUUCACACAAAAUUUUAGGCAGUGUUUCAAGAAGCACUCUUAUGUGUUGUUCUUUCAUGGAAUUCUCGGGUGCCAA | 0.92 |
| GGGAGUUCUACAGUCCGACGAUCAUAAUUUAAUUUAGUGGAAAAAGAAGACAAUGCUUUCCAUAUUGUGAUAAGGUAACAUGGGGUUUUUCUGGGCCAGCCUUUAGAACACUGUUAGGGUACAUACGCUACCUUGGAAUUCUCGGGUGCCAA | 0.83 |
| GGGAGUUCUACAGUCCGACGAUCGGUGGGUGACACGCCUUUAAUCUCAGCACUUGGGAGGAAGAGGCAGGUGAAUCUCUGGGUUAGGACCAGUAUGGUUUGCAUAGCAAGUUCCAGAGUACACAGUGAAACACUGGAAUUCUCGGGUGCCAA | 0.351 |
| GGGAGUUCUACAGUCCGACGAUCGUAGAUGAUGGCUGAGAGCCCUUCCUGUUCCCAGAUGCCUUGGUCCAAAGACCCCACCCCUCUGCUGGUCCUGCCAACGUGUUGGUGCUAUAAGCUGCUUCAGAUAUAAAUGGAAUUCUCGGGUGCCAA | 0.524 |
| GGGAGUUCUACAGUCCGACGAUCUCCCUGCACAUUGGAAAUGAAUUACAGGCAGCUGUUCAAACUCUUCAGGCAGGAUUCCUGUGGACUUUGAGAUUCAUGUUACCUCAUCUUCUUUUUUAAACUGUACCCAAUGGAAUUCUCGGGUGCCAA | 0.512 |
| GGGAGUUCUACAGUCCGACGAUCGACAGCCCCUUGUGCUGUGAGCAGAGCAGGCAGUGGCUCUGGAGGCUGCCUGUGGUCUCCUUCCGGCUGUGGCUGACAGUGGCUCUGGCCAGGGUUGCUUGGAGAAGGCUUGGAAUUCUCGGGUGCCAA | 0.447 |
| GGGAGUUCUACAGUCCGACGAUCUGAUGGUCAGUGAGGAAGCUGGCCAGCAACUGGAUCCUCCAGACCCCUCUGCUUCAGGAAGGCCCUAUAGGGCCCACCUUCCCGCCCUGCCCACCUGGCCUUUGCACUUCUGGAAUUCUCGGGUGCCAA | 0.351 |

Block 4 — method: DHFR PCA, deep sequencing; matrix: yeast; added: (+)-ABA 0.11 µM; baseline: wild-type fitted maximum; reading: higher = stronger binding
Target: ABI1, truncated, D143A, DHFR fusion (Arabidopsis thaliana)
Setting: methotrexate growth selection, single substitutions
Starting sequence: PYL1, truncated, DHFR fusion (Arabidopsis thaliana); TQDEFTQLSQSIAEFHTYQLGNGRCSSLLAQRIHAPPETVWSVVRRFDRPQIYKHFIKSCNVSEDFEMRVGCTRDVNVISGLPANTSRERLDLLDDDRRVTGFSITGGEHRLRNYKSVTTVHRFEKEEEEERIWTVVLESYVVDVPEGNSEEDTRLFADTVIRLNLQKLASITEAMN
| Change | relative binding score [%] |
| --- | --- |
| T154R | 0.13 |
| E109A | -2.1 |
| D92M | -3.51 |
| R88W | -3.27 |
| F15S | 4.52 |
| E139D | -7.41 |
| M68Y | 0.034 |
| R113Y | 3.13 |
| V62E | 1.24 |
| P50T | 1.29 |
| Y115D | -3.14 |
| K58D | 0.446 |
| M176Q | 17.6 |
| R69N | 13 |
| T17S | 17.2 |
| G81T | 36.3 |
| T135F | -7.19 |

Further values, each from its own experiment
| Molecule | target | assay | test system | setting | scale | quantity | result |
| --- | --- | --- | --- | --- | --- | --- | --- |
| PhoQ, residues 284 288 289 292 302 303 ASSHFY | PhoP, residues 12 14 15 18 19 NIMAP (Escherichia coli, UniProt P23836) | Sort-seq, item: YFP reporter | E. coli | PhoQ-PhoP variant library, added: 10 µM Mg2+ | baseline: high Mg2+ state, higher = stronger signaling | fold induction | 0.727 |
